Experimental data gathered from unrelated publications.
Compare with care: the assays were run in different laboratories. Numbers after ± are the reported error.

For `NC12CNCCNCC(NCc3ccc(CNC(=O)CCCC(=O)NCc4ccc(-c5nncnn5)cc4)cc3)(CNCCNC1)CNCCNC2.[64Cu+2]`, the tissue uptake was 0.29 ± 0.05 %ID/g (athymic nude mice, SW1222 xenograft, bone; 24 h post-injection, 24 h pretargeting interval, with: huA33-TCO pretargeting).
For `CCCC[C@H](NC(=O)CNC(=O)CNC(=O)CN1CCN(CC(=O)O)CCN(CC(=O)O)CCN(CC(=O)O)CC1)C(=O)N[C@H]1CC(=O)NCCCC[C@@H](C(N)=O)NC(=O)[C@H](Cc2c[nH]c3ccccc23)NC(=O)[C@H](CCCNC(=N)N)NC(=O)[C@@H](Cc2ccccc2)NC(=O)[C@H](Cc2c[nH]cn2)NC1=O` [gallium-67 labelled], the tissue uptake was 0.34 ± 0.07 %ID/g (female C57 mice, B16/F1 melanoma, pancreas; intravenous, 0.037 MBq, 2 h).
`CCCC[C@H](NC(=O)CN1CCC(NC(=O)CN2CCN(CC(=O)O)CCN(CC(=O)O)CCN(CC(=O)O)CC2)CC1)C(=O)N[C@H]1CC(=O)NCCCC[C@@H](C(N)=O)NC(=O)[C@H](Cc2c[nH]c3ccccc23)NC(=O)[C@H](CCCNC(=N)N)NC(=O)[C@@H](Cc2ccccc2)NC(=O)[C@H](Cc2c[nH]cn2)NC1=O` [gallium-68 labelled] has a tissue uptake of 0.2 %ID/g (C57BL/6J mice male B16-F10 tumour, blood; 2 h post injection, unblocked).
`CCCC[C@H](NC(=O)CNC(=O)CNC(=O)CN1CCN(CC(=O)O)CCN(CC(=O)O)CC1)C(=O)N[C@H]1CC(=O)NCCCC[C@@H](C(N)=O)NC(=O)[C@H](Cc2c[nH]c3ccccc23)NC(=O)[C@H](CCCNC(=N)N)NC(=O)[C@@H](Cc2ccccc2)NC(=O)[C@H](Cc2c[nH]cn2)NC1=O` [gallium-67 labelled] has a tissue uptake of 0.67 ± 0.19 %ID/g (female C57 mice, B16/F1 melanoma, spleen; intravenous, 0.037 MBq, 2 h).
The tissue uptake of `N=C(N)NCCC[C@@H]1NC(=O)[C@H](CCCCNC(=O)CON=C[C@H](F)[C@@H](O)[C@H](O)[C@H](O)CO)NC(=O)[C@@H](Cc2ccc(O)cc2)NC(=O)[C@H](CC(=O)O)NC(=O)CNC1=O` [fluorine-18 labelled] is reported as 0.3 ± 0.1 %ID/g (nude mice U-87 MG tumour, muscle; intravenous, 0.5 h).
For `CC(C)[C@H](NC(=O)[C@@H]1CCCN1C(=O)[C@H](CCCNC(=N)N)NC(=O)[C@H](CS)NC(=O)[C@H](Cc1c[nH]c2ccccc12)NC(=O)[C@H](CCCNC(=N)N)NC(=O)[C@@H](Cc1ccccc1)NC(=O)[C@H](Cc1c[nH]cn1)NC(=O)[C@H](CCC(=O)O)NC(=O)[C@H](CS)NC(=O)[C@H](CS)NC(=O)[C@@H]1CC(=O)N[C@@H](CCCNC(=N)N)C(=O)NCC(=O)N[C@@H](CC(=O)O)C(=O)N[C@H](Cc2ccc(O)cc2)C(=O)N1)C(N)=O` [technetium-99m labelled], the tissue uptake was 1.76 ± 0.37 %ID (C57 mice B16/F1 melanoma female, intestines; iv, 0.037 MBq, 2 h).
`O=C([O-])CN1CCN(CC(=O)[O-])CCN(CC(=O)NCCc2ccc3c(c2)C2C=CCC2C(c2cc4c(cc2Br)OCO4)N3)CCN(CC(=O)[O-])CC1.[111In+3]` (centres unmarked) gave a tissue uptake of 0.48 ± 0.02 %ID/g (mice with Hec50 tumour xenograft, Hec50 tumour; 4 h).
`O=C([O-])CN1CCN(CC(=O)[O-])CCN(CC(=O)[O-])CCN(CC(=O)[O-])CC1.[64Cu+2]` gave a tissue uptake of 0.71 %ID/g (healthy athymic nude mice, lung; intravenous, 24 h).
`CN1C(=O)[C@@H](Cc2ccc(O)c(I)c2)NC(=O)CNC(=O)[C@H](Cc2ccc3ccccc3c2)NC(=O)[C@H](CCCNC(=N)N)NC(=O)[C@H]1CCCNC(=O)c1ccc(CNC(=O)CN2CCN(CC(=O)O)CCN(CC(=O)O)CCN(CC(=O)O)CC2)cc1` [lutetium-177 labelled] gave a tissue uptake of 2.52 ± 0.33 %ID/g (item: 177Lu radioactivity; female CB-17 SCID mice, Daudi xenograft, kidney; intravenous, 0.16 nmol per mouse, 6 h).
For `CCCC[C@@H]1NC(=O)[C@@H](NC(=O)[C@H](CCC(=O)O)NC(=O)CNC(=O)CN2CCN(CC(=O)O)CCN(CC(=O)O)CCN(CC(=O)O)CC2)CCCCNC(=O)C[C@@H](C(N)=O)NC(=O)[C@H](C(C)C)NC(=O)[C@@H]2CCCN2C(=O)[C@H](CCCNC(=N)N)NC(=O)CNC(=O)[C@H](Cc2c[nH]c3ccccc23)NC(=O)[C@H](CCCNC(=N)N)NC(=O)[C@@H](Cc2ccccc2)NC(=O)[C@H](Cc2c[nH]cn2)NC(=O)[C@H](CCC(=O)O)NC1=O` [gallium-67 labelled], the tissue uptake was 0.04 ± 0.01 %ID/g (C57 mice, B16/F1 flank melanoma, heart; intravenous, 2 h, with: blocking peptide 10 µg).
With `O=C([O-])c1cccc(CN(CCN(Cc2cn(Cc3ccccc3)nn2)Cc2cccc(C(=O)[O-])n2)Cc2cn(Cc3ccccc3)nn2)n1.[64Cu+2]` the tissue uptake was 1.93 %ID/g (healthy athymic nude mice, large intestine; intravenous, 24 h).

Repeated from above:
`CCCC[C@H](NC(=O)CN1CCC(NC(=O)CN2CCN(CC(=O)O)CCN(CC(=O)O)CCN(CC(=O)O)CC2)CC1)C(=O)N[C@H]1CC(=O)NCCCC[C@@H](C(N)=O)NC(=O)[C@H](Cc2c[nH]c3ccccc23)NC(=O)[C@H](CCCNC(=N)N)NC(=O)[C@@H](Cc2ccccc2)NC(=O)[C@H](Cc2c[nH]cn2)NC1=O` [gallium-68 labelled] has a tissue uptake of 0.2 %ID/g (C57BL/6J mice male B16-F10 tumour, blood; 2 h post injection, unblocked).
